{"data": "Experimental data collected from several papers", "note": "Every numbered part comes from another study and shows a few of its results, in no order."}
{"data": "Series 1", "target": "Interferon regulatory factor 3, full length, phosphomimetic (IRF3, Homo sapiens, UniProt Q14653, residues 1-427, S386D/S396D/S398D/S402D/T404D/S405D)", "method": "protein-binding microarray", "form": "double-stranded DNA, one strand shown", "sample": "in vitro", "tested at": "2540 nM top", "setting": "60-bp whole probe", "together with": "salmon DNA 0.4 mg/ml", "reference": "random background probes", "direction": "higher = stronger binding", "shared flanks, not repeated": "GCCTAGCAC … GTCTTGATTCGCTTGACGCTGCTG", "Construct (chain)": "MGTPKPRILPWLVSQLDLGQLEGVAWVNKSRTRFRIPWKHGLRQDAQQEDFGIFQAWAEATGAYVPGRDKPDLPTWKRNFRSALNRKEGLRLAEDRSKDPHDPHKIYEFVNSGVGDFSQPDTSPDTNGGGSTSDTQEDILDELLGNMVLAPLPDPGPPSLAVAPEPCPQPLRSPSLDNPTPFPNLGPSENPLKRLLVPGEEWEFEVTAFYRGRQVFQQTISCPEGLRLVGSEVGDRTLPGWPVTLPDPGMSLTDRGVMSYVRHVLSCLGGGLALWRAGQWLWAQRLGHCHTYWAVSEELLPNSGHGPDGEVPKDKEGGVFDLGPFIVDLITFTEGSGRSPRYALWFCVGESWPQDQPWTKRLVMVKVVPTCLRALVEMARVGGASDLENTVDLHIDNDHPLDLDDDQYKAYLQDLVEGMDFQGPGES"}
{"Oligonucleotide": "GACGATTTCAAACTGGAGACGTGCTAG", "fitted relative affinity [z-score]": 0.768}
{"Oligonucleotide": "TTAGGACTGGACTTTAGGTTAGTGCTA", "fitted relative affinity [z-score]": -0.684}
{"Oligonucleotide": "TTAGTACTGGGGACTGGATTAGTGCTA", "fitted relative affinity [z-score]": -0.574}
{"Oligonucleotide": "GACGGTTTCGGTATCGAGACGTGCTAG", "fitted relative affinity [z-score]": 8.15}
{"Oligonucleotide": "TCATGACACCGATTTCATACTGTGCTA", "fitted relative affinity [z-score]": 0.499}
{"Oligonucleotide": "GACGATTTCGGTATCGGGACGTGCTAG", "fitted relative affinity [z-score]": 4.81}
{"data": "Series 2", "target": "Histone acetyltransferase KAT6A, winged helix 1, GST fusion (KAT6A, Homo sapiens, UniProt Q92794, residues 1-85)", "method": "protein binding microarray", "form": "double-stranded DNA, one strand shown", "sample": "in vitro", "tested at": "not given", "setting": "8-mer, flanks averaged, mean of 2 arrays, mostly near background", "reference": "not given", "direction": "higher = stronger binding", "Construct (chain)": "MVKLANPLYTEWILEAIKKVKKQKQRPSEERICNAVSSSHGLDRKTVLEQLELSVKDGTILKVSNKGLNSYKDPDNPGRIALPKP"}
{"Oligonucleotide": "ACCGCCTC", "E-score": 0.223}
{"Oligonucleotide": "ATGGCTTG", "E-score": -0.0526}
{"Oligonucleotide": "CTTGTTAA", "E-score": -0.155}
{"Oligonucleotide": "CGACACGA", "E-score": -0.095}
{"Oligonucleotide": "TATCAGAA", "E-score": -0.077}
{"Oligonucleotide": "CAGTTCCC", "E-score": 0.163}
{"data": "Series 3", "target": "Sal-like protein 4, full length isoform A (SALL4, Homo sapiens, UniProt Q9UJQ4, residues 1-1053)", "method": "universal PBM", "form": "double-stranded DNA, one strand shown", "sample": "in vitro", "tested at": "600 nM", "setting": "8-mer, flanks averaged, mean of replicates", "direction": "higher = stronger binding", "UniProt Q9UJQ4, sequence (whole entry, looked up)": "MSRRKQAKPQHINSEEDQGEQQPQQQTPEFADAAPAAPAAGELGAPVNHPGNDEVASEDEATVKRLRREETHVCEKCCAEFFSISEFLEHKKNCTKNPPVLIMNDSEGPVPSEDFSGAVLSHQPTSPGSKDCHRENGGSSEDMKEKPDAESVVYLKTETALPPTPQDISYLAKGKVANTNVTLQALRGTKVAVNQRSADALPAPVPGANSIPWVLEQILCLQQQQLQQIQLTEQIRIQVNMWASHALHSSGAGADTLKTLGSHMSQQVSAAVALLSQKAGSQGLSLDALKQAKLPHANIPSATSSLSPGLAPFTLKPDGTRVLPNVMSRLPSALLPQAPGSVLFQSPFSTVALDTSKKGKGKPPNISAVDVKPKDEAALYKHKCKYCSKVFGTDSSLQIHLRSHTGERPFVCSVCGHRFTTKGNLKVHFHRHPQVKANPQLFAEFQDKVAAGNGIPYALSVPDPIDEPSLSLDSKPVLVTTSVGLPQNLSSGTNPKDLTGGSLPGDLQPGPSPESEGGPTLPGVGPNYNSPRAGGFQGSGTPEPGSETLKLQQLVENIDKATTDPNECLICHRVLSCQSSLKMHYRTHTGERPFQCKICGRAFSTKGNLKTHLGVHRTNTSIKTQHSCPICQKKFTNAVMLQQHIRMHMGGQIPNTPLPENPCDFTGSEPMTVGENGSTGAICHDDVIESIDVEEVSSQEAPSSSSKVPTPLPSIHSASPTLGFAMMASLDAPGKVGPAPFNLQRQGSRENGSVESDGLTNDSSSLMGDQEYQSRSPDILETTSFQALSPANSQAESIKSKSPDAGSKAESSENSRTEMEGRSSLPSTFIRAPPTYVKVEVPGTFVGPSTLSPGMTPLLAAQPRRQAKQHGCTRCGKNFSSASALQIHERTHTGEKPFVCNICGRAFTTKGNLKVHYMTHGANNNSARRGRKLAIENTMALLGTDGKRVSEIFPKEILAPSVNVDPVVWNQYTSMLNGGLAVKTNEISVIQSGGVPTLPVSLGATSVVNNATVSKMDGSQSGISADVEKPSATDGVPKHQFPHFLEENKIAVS"}
{"Oligonucleotide": "CCTCAGCA", "E-score": -0.239}
{"Oligonucleotide": "CCAAGACC", "E-score": -0.257}
{"Oligonucleotide": "ATTCTCTA", "E-score": 0.192}
{"Oligonucleotide": "AGTAGGTG", "E-score": 0.0816}
{"data": "Single results of other studies"}
{"Molecule": "PhoQ, residues 284 288 289 292 302 303 SLSVQF", "target": "PhoP, residues 12 14 15 18 19 NIMAP (Escherichia coli, UniProt P23836)", "assay": "Sort-seq, measured: YFP reporter", "system": "E. coli", "conditions": "PhoQ-PhoP variant library, together with: 10 µM Mg2+", "scale": "reference: high Mg2+ state, higher = stronger signaling", "measurement": "fold induction", "result": 0.316}
{"note": "Excerpt of the above (series 1):"}
{"Oligonucleotide": "GACGATTTCAAACTGGAGACGTGCTAG", "fitted relative affinity [z-score]": 0.768}
{"Oligonucleotide": "TTAGGACTGGACTTTAGGTTAGTGCTA", "fitted relative affinity [z-score]": -0.684}
{"Oligonucleotide": "TTAGTACTGGGGACTGGATTAGTGCTA", "fitted relative affinity [z-score]": -0.574}
